Results of several laboratories.
Numbered parts are unrelated; each lists some results of a single study. ± gives the spread as reported.
Sequence of UniProt Q5S007 (whole entry, looked up): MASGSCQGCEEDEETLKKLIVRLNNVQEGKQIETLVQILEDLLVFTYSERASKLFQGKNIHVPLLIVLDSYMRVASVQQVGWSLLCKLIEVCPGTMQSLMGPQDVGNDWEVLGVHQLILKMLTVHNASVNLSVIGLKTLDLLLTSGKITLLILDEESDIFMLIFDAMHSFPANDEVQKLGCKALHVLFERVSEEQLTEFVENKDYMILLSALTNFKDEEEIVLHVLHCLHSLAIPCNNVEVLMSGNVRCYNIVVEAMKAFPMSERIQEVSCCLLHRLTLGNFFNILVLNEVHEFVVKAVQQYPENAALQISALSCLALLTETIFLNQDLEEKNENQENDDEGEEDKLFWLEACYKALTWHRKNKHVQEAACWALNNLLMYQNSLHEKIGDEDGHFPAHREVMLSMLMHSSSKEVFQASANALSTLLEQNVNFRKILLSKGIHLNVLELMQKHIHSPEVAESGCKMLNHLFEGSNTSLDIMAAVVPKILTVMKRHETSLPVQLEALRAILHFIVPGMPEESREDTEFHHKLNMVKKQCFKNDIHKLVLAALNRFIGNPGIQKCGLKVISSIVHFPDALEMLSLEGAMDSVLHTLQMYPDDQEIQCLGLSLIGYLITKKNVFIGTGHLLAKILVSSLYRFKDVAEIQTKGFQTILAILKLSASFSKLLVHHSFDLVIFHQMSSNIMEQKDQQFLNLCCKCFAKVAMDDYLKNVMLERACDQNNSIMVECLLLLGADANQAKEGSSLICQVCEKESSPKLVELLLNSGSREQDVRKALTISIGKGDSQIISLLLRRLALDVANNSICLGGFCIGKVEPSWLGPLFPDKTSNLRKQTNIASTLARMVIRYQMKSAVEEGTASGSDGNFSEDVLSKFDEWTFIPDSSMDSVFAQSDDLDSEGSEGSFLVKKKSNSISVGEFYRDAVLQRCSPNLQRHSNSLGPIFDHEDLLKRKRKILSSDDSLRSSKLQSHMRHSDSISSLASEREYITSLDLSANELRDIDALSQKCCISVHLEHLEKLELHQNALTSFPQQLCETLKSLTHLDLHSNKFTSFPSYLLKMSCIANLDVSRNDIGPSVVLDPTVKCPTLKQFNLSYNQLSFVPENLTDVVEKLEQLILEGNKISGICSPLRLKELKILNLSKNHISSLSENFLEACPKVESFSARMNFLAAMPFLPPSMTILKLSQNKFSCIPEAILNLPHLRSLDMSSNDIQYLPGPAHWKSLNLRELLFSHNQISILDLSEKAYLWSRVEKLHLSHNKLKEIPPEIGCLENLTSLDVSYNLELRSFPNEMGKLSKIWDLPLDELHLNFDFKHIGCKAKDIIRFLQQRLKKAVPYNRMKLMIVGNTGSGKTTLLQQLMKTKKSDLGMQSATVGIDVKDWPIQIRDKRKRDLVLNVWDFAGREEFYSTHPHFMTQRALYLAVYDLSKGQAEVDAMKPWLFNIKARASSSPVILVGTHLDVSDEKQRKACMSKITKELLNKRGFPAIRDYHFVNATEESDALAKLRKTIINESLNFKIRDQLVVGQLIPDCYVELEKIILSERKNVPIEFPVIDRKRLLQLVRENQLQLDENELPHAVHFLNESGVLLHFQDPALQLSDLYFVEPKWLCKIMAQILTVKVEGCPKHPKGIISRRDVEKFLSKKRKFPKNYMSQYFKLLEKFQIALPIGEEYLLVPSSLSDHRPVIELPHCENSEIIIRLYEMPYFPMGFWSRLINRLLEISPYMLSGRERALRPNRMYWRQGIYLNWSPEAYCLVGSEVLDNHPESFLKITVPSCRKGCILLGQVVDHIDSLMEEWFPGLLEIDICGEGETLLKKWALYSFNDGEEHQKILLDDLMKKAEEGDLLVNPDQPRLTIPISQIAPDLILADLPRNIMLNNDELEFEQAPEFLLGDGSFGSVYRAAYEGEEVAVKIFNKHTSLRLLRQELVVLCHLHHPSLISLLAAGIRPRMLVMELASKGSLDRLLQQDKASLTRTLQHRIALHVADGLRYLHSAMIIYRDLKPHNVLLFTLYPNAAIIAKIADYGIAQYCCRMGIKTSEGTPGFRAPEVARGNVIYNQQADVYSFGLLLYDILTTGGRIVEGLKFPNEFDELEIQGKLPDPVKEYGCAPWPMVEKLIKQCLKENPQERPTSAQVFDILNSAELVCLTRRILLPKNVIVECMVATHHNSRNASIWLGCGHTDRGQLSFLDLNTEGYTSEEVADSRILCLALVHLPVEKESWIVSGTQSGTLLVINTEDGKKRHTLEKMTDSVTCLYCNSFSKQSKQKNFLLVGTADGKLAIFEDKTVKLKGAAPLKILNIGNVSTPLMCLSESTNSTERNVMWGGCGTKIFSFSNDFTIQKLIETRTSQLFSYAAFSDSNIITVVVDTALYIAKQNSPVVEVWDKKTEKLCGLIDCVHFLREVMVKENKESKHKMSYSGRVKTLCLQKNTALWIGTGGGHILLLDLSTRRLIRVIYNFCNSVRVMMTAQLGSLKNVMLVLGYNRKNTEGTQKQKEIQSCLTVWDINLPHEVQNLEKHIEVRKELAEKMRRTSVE
Sequence of UniProt P42336 (whole entry, unmodified, looked up): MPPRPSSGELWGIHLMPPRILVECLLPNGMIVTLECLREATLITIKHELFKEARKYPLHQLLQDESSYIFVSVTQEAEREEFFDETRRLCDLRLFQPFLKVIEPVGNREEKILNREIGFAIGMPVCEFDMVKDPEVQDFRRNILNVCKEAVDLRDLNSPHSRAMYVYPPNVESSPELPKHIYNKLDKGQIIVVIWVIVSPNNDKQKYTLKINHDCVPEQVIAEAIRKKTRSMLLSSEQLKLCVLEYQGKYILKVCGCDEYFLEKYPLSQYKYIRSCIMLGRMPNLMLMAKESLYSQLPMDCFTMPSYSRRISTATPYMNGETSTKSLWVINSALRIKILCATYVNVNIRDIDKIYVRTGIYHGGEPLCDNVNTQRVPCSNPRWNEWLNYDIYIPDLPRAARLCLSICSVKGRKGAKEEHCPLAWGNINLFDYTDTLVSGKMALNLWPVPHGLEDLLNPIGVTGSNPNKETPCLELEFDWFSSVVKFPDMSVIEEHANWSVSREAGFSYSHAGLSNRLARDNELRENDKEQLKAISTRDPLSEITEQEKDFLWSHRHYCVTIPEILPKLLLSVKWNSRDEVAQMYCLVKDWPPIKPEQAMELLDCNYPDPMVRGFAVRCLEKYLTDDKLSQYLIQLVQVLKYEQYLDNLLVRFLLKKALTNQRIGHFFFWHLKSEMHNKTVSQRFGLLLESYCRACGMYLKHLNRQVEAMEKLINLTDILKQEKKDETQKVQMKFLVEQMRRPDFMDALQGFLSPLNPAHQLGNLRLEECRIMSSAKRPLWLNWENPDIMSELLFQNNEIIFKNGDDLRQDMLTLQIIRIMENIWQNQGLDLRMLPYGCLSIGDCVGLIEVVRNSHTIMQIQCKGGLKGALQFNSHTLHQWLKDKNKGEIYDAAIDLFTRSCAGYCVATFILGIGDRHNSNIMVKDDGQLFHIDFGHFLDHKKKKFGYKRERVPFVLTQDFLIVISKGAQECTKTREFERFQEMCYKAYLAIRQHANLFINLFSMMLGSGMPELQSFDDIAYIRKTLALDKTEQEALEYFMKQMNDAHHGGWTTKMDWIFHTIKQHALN
Sequence of UniProt P52564 (whole entry, looked up): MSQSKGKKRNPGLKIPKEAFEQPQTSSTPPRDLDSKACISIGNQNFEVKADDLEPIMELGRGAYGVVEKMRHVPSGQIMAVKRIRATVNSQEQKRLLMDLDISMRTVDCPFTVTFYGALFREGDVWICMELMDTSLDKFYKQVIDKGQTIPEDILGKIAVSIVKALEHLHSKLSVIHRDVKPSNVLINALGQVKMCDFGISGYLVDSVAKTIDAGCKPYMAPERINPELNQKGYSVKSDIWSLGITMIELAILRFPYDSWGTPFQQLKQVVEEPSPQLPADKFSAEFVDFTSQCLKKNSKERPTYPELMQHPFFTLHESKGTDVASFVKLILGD
Sequence of UniProt Q06187 (whole entry, looked up): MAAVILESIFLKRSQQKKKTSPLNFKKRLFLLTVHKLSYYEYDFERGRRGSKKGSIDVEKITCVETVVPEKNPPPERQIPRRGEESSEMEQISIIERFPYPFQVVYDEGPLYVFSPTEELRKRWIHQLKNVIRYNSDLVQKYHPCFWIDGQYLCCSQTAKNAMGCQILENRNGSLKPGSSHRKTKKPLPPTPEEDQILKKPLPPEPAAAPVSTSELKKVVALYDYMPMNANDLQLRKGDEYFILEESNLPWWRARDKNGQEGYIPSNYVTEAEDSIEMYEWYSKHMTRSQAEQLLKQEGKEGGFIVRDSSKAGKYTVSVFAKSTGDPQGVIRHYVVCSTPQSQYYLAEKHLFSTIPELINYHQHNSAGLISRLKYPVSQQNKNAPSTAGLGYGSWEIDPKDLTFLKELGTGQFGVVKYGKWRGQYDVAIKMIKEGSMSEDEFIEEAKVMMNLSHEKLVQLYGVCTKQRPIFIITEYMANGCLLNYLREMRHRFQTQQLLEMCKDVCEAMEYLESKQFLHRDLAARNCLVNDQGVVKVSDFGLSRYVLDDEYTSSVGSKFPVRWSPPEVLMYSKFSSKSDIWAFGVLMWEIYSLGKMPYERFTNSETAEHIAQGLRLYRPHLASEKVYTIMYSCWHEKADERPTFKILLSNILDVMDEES
Sequence of UniProt O96017 (whole entry, looked up): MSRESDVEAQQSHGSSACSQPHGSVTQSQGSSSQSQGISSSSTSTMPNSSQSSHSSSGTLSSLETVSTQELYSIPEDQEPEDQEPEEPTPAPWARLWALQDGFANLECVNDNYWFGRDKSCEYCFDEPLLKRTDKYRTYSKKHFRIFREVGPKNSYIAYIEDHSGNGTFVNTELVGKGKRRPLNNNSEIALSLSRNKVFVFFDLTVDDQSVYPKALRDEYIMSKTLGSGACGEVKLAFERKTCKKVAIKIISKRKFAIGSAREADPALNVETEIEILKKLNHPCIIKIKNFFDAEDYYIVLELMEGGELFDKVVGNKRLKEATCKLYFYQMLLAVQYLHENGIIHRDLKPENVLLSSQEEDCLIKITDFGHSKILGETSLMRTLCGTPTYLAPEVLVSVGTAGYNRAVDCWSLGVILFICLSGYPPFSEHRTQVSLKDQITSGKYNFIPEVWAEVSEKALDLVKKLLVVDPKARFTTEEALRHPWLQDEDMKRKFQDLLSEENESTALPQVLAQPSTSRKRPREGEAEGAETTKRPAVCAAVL

Series 1 — Compound: O=C(Nc1ccc(Cl)cc1)c1ccccc1NCc1ccncc1; read-out: enzyme activity; action: inhibitor; tested at: 0.5 µM; reference: control
The remaining activity was 97.3% (Mitogen-activated protein kinase 12 (MAPK12, Homo sapiens, UniProt P53778)).
The remaining activity was 98.7% (Leucine-rich repeat serine/threonine-protein kinase 2 (LRRK2, Homo sapiens, UniProt Q5S007)).
Protein kinase C delta type (PRKCD, Homo sapiens, UniProt Q05655) — remaining activity: 84.7%.
Tyrosine-protein kinase Lyn (LYN, Homo sapiens, UniProt P07948) — remaining activity: 75.1%.
It gave 117% for remaining activity (Dual specificity mitogen-activated protein kinase kinase 6 (MAP2K6, Homo sapiens, UniProt P52564)).
For Tyrosine-protein kinase BTK (BTK, Homo sapiens, UniProt Q06187): remaining activity read 98.9%.
Mitogen-activated protein kinase kinase kinase kinase 2 (MAP4K2, Homo sapiens, UniProt Q12851) — remaining activity: 97.3%.
Mitogen-activated protein kinase 13 (MAPK13, Homo sapiens, UniProt O15264) — remaining activity: 95.6%.
Protein kinase C iota type (PRKCI, Homo sapiens, UniProt P41743) — remaining activity: 98.7%.

Series 2 — read-out: cell-free assay; method: competition with immobilised ligand; tested at: 1 µM
Structure (SMILES): N#CC1(c2ccccn2)CCN(Cc2cc(C(=O)N3CCCC3)c(=O)n3ccccc23)CC1
Atypical kinase COQ8A, mitochondrial (COQ8A, Homo sapiens, UniProt Q8NI60) — remaining binding: 85%.
The remaining binding was 85% (Rhodopsin kinase GRK1 (GRK1, Homo sapiens, UniProt Q15835)).
The remaining binding was 72% (Phosphatidylinositol 4,5-bisphosphate 3-kinase catalytic subunit alpha isoform (PIK3CA, Homo sapiens, UniProt P42336, M1043I)).
The remaining binding was 80% (Tyrosine-protein kinase FRK (FRK, Homo sapiens, UniProt P42685)).
For Serine/threonine-protein kinase Chk2 (CHEK2, Homo sapiens, UniProt O96017): remaining binding read 92%.
It gave 79% for remaining binding (Protein kinase C epsilon type (PRKCE, Homo sapiens, UniProt Q02156)).

Series 3 — cell line: A-375; tested at: 100 µM; time: 18 h
With `CC(C)/N=c1\cc2n(-c3ccc(Cl)cc3)c3ccccc3nc-2cc1Nc1ccc(Cl)cc1` the viability was 52.8%.
With `CN1C2=CC(=O)/C(=N\NC(N)=O)C=C2CC1S(=O)(=O)O` (stereo not drawn) the viability was 107%.
`CC(=O)N[C@@H](CCC(N)=O)C(=O)O` has a viability of 111%.
`CCOC(=O)c1c(CSc2ccccc2)n(C)c2cc(Br)c(O)c(CN(C)C)c12` has a viability of 13.2%.
The viability of `CC(C)NCC(O)c1cc(O)cc(O)c1` (stereo not drawn) is reported as 93.9%.

Other studies, line by line
`OCCN1CCN(CCCN2c3ccccc3Sc3ccc(Cl)cc32)CC1` — result for “blood urea nitrogen”: 26.7 ± 2.4 mg/dL (mouse, serum; dose not given).

Excerpt of the above (series 2):
The remaining binding was 72% (Phosphatidylinositol 4,5-bisphosphate 3-kinase catalytic subunit alpha isoform (PIK3CA, Homo sapiens, UniProt P42336, M1043I)).
The remaining binding was 80% (Tyrosine-protein kinase FRK (FRK, Homo sapiens, UniProt P42685)).
For Serine/threonine-protein kinase Chk2 (CHEK2, Homo sapiens, UniProt O96017): remaining binding read 92%.
